Published values from different studies.
Each numbered part is a random draw from the data of one study; scales do not carry over between parts. Positions count from the first letter of the parent shown.

Series 1 — method: RNA Bind-n-Seq; molecule type: RNA; matrix: in vitro; tested at: 365 nM; baseline: no-protein control; reading: higher = stronger binding
Target: RNA binding protein fox-1 homolog 2, RRM domain, GST-SBP tag (RBFOX2, Homo sapiens, UniProt O43251-10, residues 100-194)
Notes: natural RNA segment, single round, ends assumed
All sequences stand within: GGGAGUUCUACAGUCCGACGAUC … UGGAAUUCUCGGGUGCCAA
Target sequence (chain): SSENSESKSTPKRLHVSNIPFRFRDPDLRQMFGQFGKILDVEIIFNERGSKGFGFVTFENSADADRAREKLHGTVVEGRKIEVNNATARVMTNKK
| Sequence | RBNS enrichment (R) |
| --- | --- |
| AGGUUCCAGACCAGCCUGCUGGCCUGCGACUCUUCACAGUGCAAAUUCCCCACAAGCGCCUGCGCCAGCCCCCUCCCUGCUACCUCACAGCCUGGGAUGGCUCCAACUUC | 0.342 |
| UCUAUGAUAUGAAUACUGUGUGUGUGAGUUGAAGCAUUACCUGAUAUUAAAUGAAGGAUUUGGAGAAUGGUGAAUUUUUUUCUUGGUUCAUCUCUGAGUUUUGACCACAG | 0.569 |
| AUCCGGGAGAUGCUGAUGGCACGAAGGGCCCAGUAGGGAGCCUCUCUGGGAAGCUCUUCCUCCUGCCCCUCCCAUUCCUGGUGGGGGCAGAGGAGUGUCUGCAGGGAAAC | 0.44 |
| UUUAAUCUCUUCUAUUUUGUUGUCGUUGCUUGUUUGAAGAAAAUCAUGACAUUCCAAGUUGACAUUUUUUUUUCAUUUUAAUUAAAAUUUGAAAUUCUGAACACCGUCAG | 1.1 |
| UGAUCAUUUUAGACACUGGGAGAAGAGAACCUCAAACUAGGAGGAAAAGACAGAGCCUCCACUUAGUUUUGGGAGGGGAUGGCAGACAGUCAAGGAGAUGAGCGUCCUAA | 0.795 |
| AGCUCCCAGGAGGGGCUUCUGGGCAGACUCUGGUCAAGAAGCAUCGUGUCUGGCGUUGUGGGGAUGAACUUUUUGUUUUGUUUCUUCCUUUUUUAGUUCUUCAAAGAUAG | 0.51 |
| AAAUUUAAUUCAUCUCUGCAUAGUGAUUUUUGAAUUUGAUUCAAAGGGAAAUUAUUGCAGAAGAAUGCCUUUCCCUCAUUUUAUAACUUUAAAAACUUGGAUUAACCACU | 0.697 |
| AUAUUUCAACGCUGUCAAUAAUUGUCUUUAACCUCCAAGUAGGUCUUGCAGAAUCGUCUUCAUUUCAUCAGACCUAUUGGGGGUGAACAGUAAUUAAUAGGAGGCCCAGC | 0.387 |

Series 2 — method: RNA Bind-n-Seq; molecule type: RNA; matrix: in vitro; tested at: 200 nM; notes: whole 134-nt RNA, ends assumed; together with: 150 mM KCl; baseline: input library; reading: higher = stronger binding
Target: Ras GTPase-activating protein-binding protein 1, full length (G3BP1, Homo sapiens, UniProt Q13283)
UniProt Q13283, sequence (whole entry, looked up): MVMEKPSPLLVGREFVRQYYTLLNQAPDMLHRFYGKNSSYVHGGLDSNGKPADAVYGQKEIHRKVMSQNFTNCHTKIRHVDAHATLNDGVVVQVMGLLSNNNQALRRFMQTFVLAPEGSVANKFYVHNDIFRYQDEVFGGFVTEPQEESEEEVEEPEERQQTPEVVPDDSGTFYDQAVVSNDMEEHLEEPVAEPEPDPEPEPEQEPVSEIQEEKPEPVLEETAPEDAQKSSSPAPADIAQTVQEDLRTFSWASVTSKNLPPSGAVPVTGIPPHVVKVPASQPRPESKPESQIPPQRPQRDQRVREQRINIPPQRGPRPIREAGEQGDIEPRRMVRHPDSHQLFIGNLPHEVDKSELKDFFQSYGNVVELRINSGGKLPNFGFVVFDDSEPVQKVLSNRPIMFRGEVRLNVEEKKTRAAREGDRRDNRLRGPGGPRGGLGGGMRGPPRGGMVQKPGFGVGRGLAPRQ
All sequences stand within: GGGAGUUCUACAGUCCGACGAUC … UGGAAUUCUCGGGUGUCAAGG
| Sequence | log2 enrichment |
| --- | --- |
| GUCCUGUGCUACACAUCGUAUGUACCGAAUCGGGGAAAAAAAGGGGAGGGGAAAGGGGAAAGUAUUAUGUUACGCCGUUCGGAUCUGCAC | 0.436 |
| GCAGGAAGUAAAAACAAAUGGAAAUGCUUCGGAUAGUGGCAGGGGUGGGGGUUGCUAAGGAAAGGGUGGUAUGGGAGUGGGUAAAGAGUU | 0.79 |
| CCUGUGCUACACAUCGUAUGUACCGAAUCGGGUUUUUUGGUUUUUUGGGGUUUUUUGGGGAAAGUAUUAUGUUACGCCGUUCGGAUCUGC | -0.873 |
| GCAGGAAGUAAAAACAAAUGGAAAUGCUUCGGAUAGUGGCAGGGGUGGGGGUUGCUAAGGAAAAAGUGGGAUGGGAGUGGGUAAAGAGUU | 0.845 |
| UCAAGUCCUGUGCUACACAUCGUAUGUACCGAAUCGGGAAAGGGUGGGUUUGGGAAAGUAUUAUGUUACGCCGUUCGGAUCUGCACUUCC | 1.04 |
| UCCUGUGCUACACAUCGUAUGUACCGAAUCGGGGUUUUUUUGGGGAAAGGGGAAAGGGGAAAGUAUUAUGUUACGCCGUUCGGAUCUGCA | 0.798 |
| UGUUUUAAGGUUGCCAACUUUGCAACAAUGGAAGAUGAAGAAGAGCUAGAAGAGCGUCCUCACAAGGACUGGGAUGAGAUCAUUCCAGAG | -1.26 |
| UUGGCGCAUGCGCCUAAAGCUGACGGGUUUGAAAUGGCUUCGAUGUUAGCCGGGACCCGACUCAGGUGAAGGUCUGGUCCCCGUAGUUGG | -1.15 |
| AGUCCUGUGCUACACAUCGUAUGUACCGAAUCGGGGAAAAAGGGGAAAGGGGUGGGGAAAGUAUUAUGUUACGCCGUUCGGAUCUGCACU | -0.0385 |

Series 3 — target: NFE2L2, bZIP domain (human); method: DHFR protein complementation; matrix: yeast; baseline: wild-type JUN-FOS pair; reading: higher = stronger binding
Notes: single substitutions, most at no-binding floor
Starting sequence: JUN, bZIP domain (human); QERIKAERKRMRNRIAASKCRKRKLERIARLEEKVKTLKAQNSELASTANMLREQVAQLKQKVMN; partner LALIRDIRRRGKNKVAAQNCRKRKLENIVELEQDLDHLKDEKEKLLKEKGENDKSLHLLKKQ
| Change | binding fitness |
| --- | --- |
| A29M | -1.58 natural log |
| L45A | -1.47 natural log |
| A57L | -1.46 natural log |
| E44A | -1.51 natural log |
| A40C | -1.45 natural log |
| Q55W | -1.37 natural log |
| E32K | -1.61 natural log |
| L45F | -1.29 natural log |
| L38Q | -1.35 natural log |
| N42R | -1.37 natural log |
| Q55R | -1.52 natural log |
| E44V | -1.32 natural log |
| E32S | -1.54 natural log |
| A40V | -1.28 natural log |
| V56S | -1.37 natural log |
| Q55P | -1.55 natural log |
| V35L | -1.46 natural log |
| Q55S | -1.56 natural log |
| A29W | -1.44 natural log |
| A29H | -1.45 natural log |
| A46P | -1.41 natural log |

Series 4 — method: universal PBM; molecule type: double-stranded DNA, one strand shown; matrix: in vitro; tested at: not given; reading: higher = stronger binding
Target: Sal-like protein 4, full length isoform B (SALL4, Homo sapiens, UniProt Q9UJQ4-2, residues 1-616)
Notes: 8-mer, flanks averaged, mean of replicates
| Sequence | E-score |
| --- | --- |
| ATATCAAC | 0.236 |
| AAAAATAA | 0.405 |
| CCATGAAG | -0.103 |
| GTCGAAAC | -0.088 |
| GATGCCAC | -0.222 |
| ATAGTCAT | 0.219 |
| ACCTAGCC | -0.149 |
| CACGCCGA | -0.35 |
| ATTTAGCG | 0.117 |
| CTACACTC | -0.112 |
| TCTGCAAA | 0.102 |
| AACCTATA | 0.295 |
| ATCTGCAT | 0.146 |
| TATTCGAA | 0.179 |
| GACGTCAC | -0.15 |
| CCGAGCAG | -0.264 |
| GGTGGGTA | 0.0527 |
| ACTCAGAT | -0.0126 |

Series 5 — method: protein binding microarray; molecule type: double-stranded DNA, one strand shown; matrix: in vitro; tested at: not given; baseline: not given; reading: higher = stronger binding
Target: Histone acetyltransferase KAT6A, both winged helices, GST fusion (KAT6A, Homo sapiens, UniProt Q92794, residues 1-181)
Notes: 8-mer, flanks averaged, mean of 2 arrays, mostly near background
Target sequence (chain): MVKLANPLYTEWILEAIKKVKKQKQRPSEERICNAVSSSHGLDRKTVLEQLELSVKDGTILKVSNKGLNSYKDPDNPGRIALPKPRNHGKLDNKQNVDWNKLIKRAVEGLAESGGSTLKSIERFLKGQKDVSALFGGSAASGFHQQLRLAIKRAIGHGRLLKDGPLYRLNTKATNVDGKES
| Sequence | E-score |
| --- | --- |
| ATTATTAA | -0.00269 |
| GCTGTATA | -0.0842 |
| CTAGATCA | -0.138 |
| CAGCCTGC | -0.171 |
| CGAGATAG | -0.105 |
| CCCAGTCG | -0.0707 |
| CGTCTTAC | 0.0445 |
| ATCCCAAT | -0.0879 |
| ACGACGGG | 0.183 |
| GTGAGAGA | -0.186 |
| AGTCCCTA | -0.0768 |
| ACATGCGA | 0.0473 |
| CACCTGCG | 0.0549 |
| GCGCGTAA | 0.348 |
| CTTGTACA | -0.0488 |
| CAAATGAC | -0.0896 |
| AGACAGCA | -0.13 |
| CAAGTAGG | -0.222 |
| CTTGGGTC | -0.218 |
| GTGAAGAA | 0.0658 |
| AGTCCGGG | 0.1 |
| CATTTGTA | -0.13 |
| ACTTAAAC | -0.201 |
| CGCCACAG | 0.0134 |
| AATTGATC | -0.0415 |

A few entries again (series 5):
| Sequence | E-score |
| --- | --- |
| CACCTGCG | 0.0549 |
| ATCCCAAT | -0.0879 |
| ACTTAAAC | -0.201 |
| ACATGCGA | 0.0473 |
| CAGCCTGC | -0.171 |
| GTGAGAGA | -0.186 |
| ATTATTAA | -0.00269 |
| CGCCACAG | 0.0134 |
| CCCAGTCG | -0.0707 |
| ACGACGGG | 0.183 |
